Measurements collected from several papers.
Numbered parts are unrelated; each lists some results of a single study. Changes are numbered by the printed parent chain.

Sample 1
Target: RING finger protein unkempt homolog, zinc fingers 1-6, GST-SBP tag (UNK, Homo sapiens, UniProt Q9C0B0, residues 30-357)
Chain of UniProt Q9C0B0 (30-357, looked up): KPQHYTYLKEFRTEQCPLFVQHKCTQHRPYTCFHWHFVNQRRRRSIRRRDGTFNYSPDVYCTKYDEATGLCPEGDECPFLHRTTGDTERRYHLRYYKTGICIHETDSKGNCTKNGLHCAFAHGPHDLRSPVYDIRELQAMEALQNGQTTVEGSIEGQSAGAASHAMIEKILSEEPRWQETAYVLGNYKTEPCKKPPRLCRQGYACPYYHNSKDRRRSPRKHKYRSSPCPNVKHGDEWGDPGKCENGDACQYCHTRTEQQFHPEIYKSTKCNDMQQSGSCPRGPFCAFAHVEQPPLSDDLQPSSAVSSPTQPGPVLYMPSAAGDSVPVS
Technique: RNA Bind-n-Seq
Molecule type: RNA
Sample: in vitro
Tested at: not given
Setting: RNA with constant flanks, human and mouse sites, ends assumed
Reference: input RNA pool
Direction: higher = stronger binding
Measurement: bound/input enrichment
All sequences stand within: GGGAGUUCUACAGUCCGACGAUC … CAACAGAGGAUUGAGCAUCA
AAACCCCAGGCUGUUUCUUCAUUAAGUUCUAGUCAUUCCAGGUCUCAUGGGAAUGAUCACCAUAGCAAGGAACAUCAGCGCUCCAAAUCACCUCGGGACCCUGAUGCCAACUGGGAUUCU: 0.166 ratio
AUUCAGAAUCACUUUGUGGAUGAGUAUGACCCUACGAUAGAGGACUCCUACAGGAAACAAGUAGUAAUUGAUGGAGAAACCUGUCUCUUGGAUAUUCUCGACACAGCAGGUCAAGAGGAG: 0.563 ratio
CCCGGGCUGCAGACGGCCCCAGCUACAGAGGCUCUAUCACCCACGGCACGCCCGCAGACGUCCUCUACAAGGGUACCAUCAGCAGGAUCGUCGGUGAGGACAGCCCAAGUCGCCUUGACC: 0.0716 ratio
AAAUUUGACUCAAAUGUGAGUGGUCAGUCCUCUUUCGGGACAUCUCCAGCAGCAGACAACAUAGAAAAGGAGGCGCUUCCUCGUUAUGAGCCAAUUCCAUUUAGUGCUUCUAUGAACGAG: 0.737 ratio
GAUGUUUCAUCCAUCUACCGGGUACCCUUGUUGUUAGAAGAGCAAGGGGUUGUAGACUACUUUCUUCGGAGACUUGACCUUCCUAUUGAGAGACAGUCACGAAAGAUGCUGAUGAAAUGG: 0.184 ratio
AUGCUCAUCAGUGGCUAUGCACUCAACUGUGUGGUGGGAUCCCAGGGCAUGCCCAAGAGAAUCGUAAAUGCAAAAAUUGCUUGCCUUGACUUCAGCCUGCAAAAAACAAAAAUGAAGCUU: 0.104 ratio
CAGCCCCGCACAGGGCCAUGAUUGUUUAUGUCCCACUGGCAGGGAGGUCUCCCAGAUUCCAGUGCUGUCAAGCUCCAGGGCCUGCCCACCUCUGAAGCCUAGGCCUUCUCAGUGUCAGGA: 0.0834 ratio
UUAUGUCUUCAGCUUCGGCAGGACAUAGUUGCAGGACGUCUGCCCUGUUCCUUUGCAACCUUAGCAUUAUUAGGUUCUUACACCAUCCAGUCUGAACUGGGAGACUACGACCCAGAACUC: 0.981 ratio
AAACUAGGAUAUGCUGGAAAUACAGAACCACAGUUUAUCAUCCCUUCCUGUAUUGCUAUUAAGGAGUCAGCAAAAGUGGGUGAUCAAGCUCAAAGGAGGGUGAUGAAAGGUGUUGAUGAC: 0.425 ratio
ACACCCCAGUGAGCAGUGAGUGAUUUUCCUUUAGUCACACGGUGGUUUUGCUUUGUAGUUAGUAGGUGAUGGAUAUAUAGGUCUUCAUCCUCCUUUAGGCUGUUUCUCUUCUUGUGUUUG: 3.92 ratio
CAAUAUUUGUACAUUAUGUGAUUUAUGUUUUUUUGAUGUCAACAGUUUGUGAUUUGAGUGAAGUAUUUGUAAACUGCUGUUUUCUGCACUAUUCCUGUUCACACUUCAUCGUGUGGUCAG: 0.488 ratio

Sample 2
Target: ABI1, truncated, D143A, DHFR fusion (Arabidopsis thaliana)
Technique: DHFR PCA, deep sequencing
Sample: yeast
Setting: methotrexate growth selection, single substitutions
Together with: (+)-ABA 58 µM
Reference: wild-type fitted maximum
Direction: higher = stronger binding
Measurement: relative binding score
Parent: PYL1, truncated, DHFR fusion (Arabidopsis thaliana); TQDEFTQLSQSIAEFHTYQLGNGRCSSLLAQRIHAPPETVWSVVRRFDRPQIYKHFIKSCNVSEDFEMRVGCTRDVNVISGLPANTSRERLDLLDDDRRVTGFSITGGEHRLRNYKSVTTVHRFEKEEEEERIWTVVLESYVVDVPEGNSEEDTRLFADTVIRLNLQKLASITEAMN
E64A: 87.8%
L8R: 40.3%
V136M: 95.4%
S87W: -4.05%
A13V: 82.7%
N85H: 88.4%
T17C: 76.7%
S59F: 58.1%
H16K: -31.9%
R32S: 76.8%
V136H: 33%
N61M: 82.7%
H16G: -7.49%
E38Y: 38.8%
H110Y: 10.4%
S26T: 87.1%
L29E: 8.7%
G107A: 71%

Sample 3
Target: Histone acetyltransferase KAT6A, winged helix 1, GST fusion (KAT6A, Homo sapiens, UniProt Q92794, residues 1-85)
Technique: protein binding microarray
Molecule type: double-stranded DNA, one strand shown
Sample: in vitro
Tested at: not given
Setting: 8-mer, flanks averaged, mean of 2 arrays, mostly near background
Reference: not given
Direction: higher = stronger binding
Measurement: E-score
Construct (chain): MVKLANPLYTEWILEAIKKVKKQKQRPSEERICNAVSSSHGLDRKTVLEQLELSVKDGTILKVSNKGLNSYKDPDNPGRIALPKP
CTGCTGTC: -0.0226
TCAAAGCA: -0.221
ACCTTGAA: -0.178
GACATAAC: -0.0771
ATATCGAA: -0.0943
AACATCAA: -0.06
ATATATGA: -0.201
CACCGCTC: 0.169
ATAAATGC: -0.0682
ACAGAAGT: -0.23
ACCGCGAT: 0.287
AATCCTCT: -0.157
CGGTAGCC: 0.147
AAAATTCA: -0.229
ACCCTAAT: -0.178
GACTACAC: -0.0543
GAGCCTGC: -0.00283
ATGCGAAC: 0.091
CAGGTTGG: -0.219
CAAAGCTG: -0.0345
CGCTGCCC: 0.278
TAGCCGGA: 0.236
CTTGACAA: -0.0843

Sample 4
Target: CCNE2, cyclin fold, Cln2 fusion (human)
Technique: yeast growth competition, sequencing
Sample: yeast
Setting: weak parent motif
Reference: not given
Direction: higher = stronger binding
Measurement: normalised enrichment score
Parent: HASPIN docking peptide (human); ASLRSVLFGLMNS
L7A: 0.584
V6A: 0.535
M11A: 0.918
F8A: 0.16
R4A: -0.29
S2A: 0.231

Sample 5
Target: Sal-like protein 4, full length isoform B (SALL4, Homo sapiens, UniProt Q9UJQ4-2, residues 1-616)
Technique: universal PBM
Molecule type: double-stranded DNA, one strand shown
Sample: in vitro
Tested at: not given
Setting: 8-mer, flanks averaged, mean of replicates
Direction: higher = stronger binding
Measurement: E-score
CGGTGTAG: -0.0871
CAGGCGGC: -0.322
GAGCCCTA: -0.12
CGATAAAG: 0.119
AGAAGCAA: 0.092
ACAGAAGG: -0.199
CATAAGTC: 0.188
CCTTATAC: 0.177
ATGGCTGG: -0.222
TAACTCAA: 0.239
TCGACCAA: -0.0659
AATACGAC: 0.159
CACCCGTC: -0.303
AGTGATGC: -0.0835
ACTACCAA: 0.0965
TCCTACGA: -0.187
GCTGGGGA: -0.221
ATAGTTCG: 0.0977
GCACATGA: 0.096
ACATGATA: 0.298
GCTCAGAC: -0.195
AATGGACT: -0.0258
GCAAGGGC: -0.278
CACACGTG: -0.148

Repeated from above (sample 3):
ACCTTGAA: -0.178
ACAGAAGT: -0.23
ACCCTAAT: -0.178
ATATCGAA: -0.0943
ATGCGAAC: 0.091
CAAAGCTG: -0.0345
